Measurements pooled from the literature.
Numbered parts are unrelated; each lists some results of a single study.

Series 1
Target: Sal-like protein 4, full length isoform A (SALL4, Homo sapiens, UniProt Q9UJQ4, residues 1-1053)
UniProt Q9UJQ4, sequence (whole entry, looked up): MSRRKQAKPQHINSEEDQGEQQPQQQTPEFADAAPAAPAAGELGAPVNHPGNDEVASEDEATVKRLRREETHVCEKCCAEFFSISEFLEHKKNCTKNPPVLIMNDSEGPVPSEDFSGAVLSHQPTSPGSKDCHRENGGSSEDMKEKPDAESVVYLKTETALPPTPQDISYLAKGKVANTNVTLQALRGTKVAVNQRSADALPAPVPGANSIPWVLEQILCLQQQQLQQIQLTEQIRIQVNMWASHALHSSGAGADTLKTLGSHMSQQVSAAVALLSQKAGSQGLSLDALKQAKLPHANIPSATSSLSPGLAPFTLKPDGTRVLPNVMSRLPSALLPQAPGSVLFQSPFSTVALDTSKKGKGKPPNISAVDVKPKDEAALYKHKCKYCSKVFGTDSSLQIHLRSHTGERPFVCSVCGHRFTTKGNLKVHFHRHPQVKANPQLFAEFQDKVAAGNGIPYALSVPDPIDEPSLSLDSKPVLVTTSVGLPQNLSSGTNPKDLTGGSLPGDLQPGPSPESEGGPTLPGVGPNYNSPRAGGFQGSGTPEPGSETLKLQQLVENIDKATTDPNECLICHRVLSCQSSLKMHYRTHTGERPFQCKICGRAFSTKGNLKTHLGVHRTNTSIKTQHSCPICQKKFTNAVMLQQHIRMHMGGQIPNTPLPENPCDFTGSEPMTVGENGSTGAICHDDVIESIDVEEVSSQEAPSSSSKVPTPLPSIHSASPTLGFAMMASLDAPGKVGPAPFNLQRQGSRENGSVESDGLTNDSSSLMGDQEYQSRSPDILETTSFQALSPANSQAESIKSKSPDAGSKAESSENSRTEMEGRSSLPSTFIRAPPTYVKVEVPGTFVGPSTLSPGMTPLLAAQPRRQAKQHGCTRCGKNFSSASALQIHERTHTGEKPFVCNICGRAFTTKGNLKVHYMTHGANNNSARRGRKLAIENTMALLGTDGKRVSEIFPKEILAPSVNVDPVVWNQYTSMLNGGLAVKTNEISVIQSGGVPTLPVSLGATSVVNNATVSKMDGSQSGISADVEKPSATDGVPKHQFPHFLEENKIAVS
Method: universal PBM
Molecule type: double-stranded DNA, one strand shown
Sample: in vitro
Concentration: 600 nM
Notes: 8-mer, flanks averaged, mean of replicates
Direction: higher = stronger binding
Oligonucleotide | E-score
CTCACTAA | -0.0323
AACTACTG | 0.00283
GTTCTTCA | -0.00276
CTCCCGAG | -0.239
CAATTTGA | 0.257
AGAAAATA | 0.323
CAACGTAG | 0.0802
GCTCTTCA | -0.163
GAACTTTA | 0.114
CCAACGTC | -0.246
GCGTCTAA | 0.0842
CAGAACAG | -0.123
CCAGTACA | 0.102
GCTAATAC | 0.103
CCCCAACG | -0.258
CGCTATAG | 0.0544
ATGATGCG | 0.0478
AAACATCG | -0.0426

Series 2
Target: Interferon regulatory factor 7, full length, phosphomimetic (IRF7, Homo sapiens, UniProt Q92985, residues 1-503, S471D/S472D/S475D/S476D/S477D/S483D/S484D/S487D)
UniProt Q92985, sequence (whole entry, unmodified, looked up): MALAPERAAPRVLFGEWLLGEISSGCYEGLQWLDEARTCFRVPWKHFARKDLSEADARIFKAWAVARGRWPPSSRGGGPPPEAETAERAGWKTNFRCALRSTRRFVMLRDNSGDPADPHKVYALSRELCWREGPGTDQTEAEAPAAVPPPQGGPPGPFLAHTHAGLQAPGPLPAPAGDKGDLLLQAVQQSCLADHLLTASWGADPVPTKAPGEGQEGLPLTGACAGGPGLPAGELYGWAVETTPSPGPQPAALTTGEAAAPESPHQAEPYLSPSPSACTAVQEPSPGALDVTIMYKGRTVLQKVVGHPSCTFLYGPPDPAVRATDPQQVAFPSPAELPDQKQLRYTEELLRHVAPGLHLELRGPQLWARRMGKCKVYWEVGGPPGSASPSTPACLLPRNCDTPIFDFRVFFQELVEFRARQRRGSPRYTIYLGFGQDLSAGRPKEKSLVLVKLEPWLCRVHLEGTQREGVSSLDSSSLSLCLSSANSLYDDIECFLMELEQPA
Method: protein-binding microarray
Molecule type: double-stranded DNA, one strand shown
Sample: in vitro
Concentration: 2200 nM top
Notes: 60-bp whole probe
Together with: salmon DNA 0.4 mg/ml
Baseline: random background probes
Direction: higher = stronger binding
Constant ends, left off below: GCCTAGCAC … GTCTTGATTCGCTTGACGCTGCTG
Oligonucleotide | fitted relative affinity
TTAGGTATCGGACTGGGTGAGTGCTAG | -0.131 z-score
TTAGGTTTCGAGTATCGGTTAGTGCTA | 3.68 z-score
TCAAGTCTCATATTTATACTGTGCTAG | 0.526 z-score
TTCTTTTTTTCTTTTATTAGGTGCTAG | 3.36 z-score
TGAGGTATCGACACTGGGTTAGTGCTA | -0.489 z-score
GACGGACTGCTTTTACTGACGTGCTAG | 0.377 z-score
TTAGGACTGCTACTGCTTTTGTGCTAG | -0.117 z-score
AGACAAGCATTTGGTGATGCGTGCTAG | -0.669 z-score
TCATCTTCCCTTTTAAGACTGTGCTAG | 2.84 z-score
GACGGTCTCCTACTGCCGACGTGCTAG | 0.392 z-score
TTAGAACTGAGTCTCGTTTAGTGCTAG | 0.19 z-score
TCAAACTTGTATTTGTCACTGTGCTAG | 0.441 z-score

Series 3
Target: RING finger protein unkempt homolog, zinc fingers 1-6, GST-SBP tag (UNK, Homo sapiens, UniProt Q9C0B0, residues 30-357)
Method: RNA Bind-n-Seq
Molecule type: RNA
Sample: in vitro
Concentration: not given
Notes: RNA with constant flanks, human-mouse chimeric sites, ends assumed
Baseline: input RNA pool
Direction: higher = stronger binding
Constant ends, left off below: GGGAGUUCUACAGUCCGACGAUC … CAACAGAGGAUUGAGCAUCA
Residues (chain): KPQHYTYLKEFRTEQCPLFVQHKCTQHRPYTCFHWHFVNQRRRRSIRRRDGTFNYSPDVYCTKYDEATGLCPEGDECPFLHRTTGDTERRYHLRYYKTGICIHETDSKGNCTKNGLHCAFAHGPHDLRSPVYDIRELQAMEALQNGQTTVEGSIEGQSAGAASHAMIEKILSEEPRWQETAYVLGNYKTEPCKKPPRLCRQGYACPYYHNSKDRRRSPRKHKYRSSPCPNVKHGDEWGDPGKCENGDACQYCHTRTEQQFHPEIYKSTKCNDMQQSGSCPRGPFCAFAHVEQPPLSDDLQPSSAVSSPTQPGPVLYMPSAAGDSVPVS
Oligonucleotide | bound/input enrichment
UAAAUUAGGGCUGCCGUUUUCUGUUUCUCCCUGGGCUGCGGAAAGCCAGAAGAUUUUAUCUAGCUUAAACCAGGCUGCUGGUGUUCCCUCUUUUUUUCCACGAGGGUUUUUUUUCCAGCA | 0.347 ratio
GGGACUGAUUCAUCCCAAGGACAGGCCACCCCAUUUGAUGCCUGGACUGAUGACAGUAUGUUAGGGCCUAGUCAAAAUGUUGAAGCUGAGUCAAUUCAGGAUGCCAUGAGUAUGGAAGAG | 0.496 ratio
CUGAGGAAUACCACUGAGAGACCUUAAAAGAAUCAUUUGAGGGCUCUGUUCGUGCAAGAAUAGUCACUGAUCGGGAAAACUGGGUCCCCAAAGGGUUUGGUUUUGUAGACUUUAAUAGUG | 0.671 ratio
CACACACUCUUCUGCGGGACCCUCAUCUUGCAGGCCCGGGCCUAUGUGGGACCCCGUGUCCUGGCAGUGGUGACCCGCACAGGGUUCUGCACAGCCAAAGGGGGCCUGGUGAGCUCCAUC | 0.0414 ratio
GCAGGAUCUUCUAAGUACCAGUGGGGCAUUAUGAAAUCCCUUGGGCUCUCUGAUGACGACAUAGUGAAGUUUUCUGAAGCAGAGCACUGGCUUGAUUAUUUCCCGCCACUGGCCGUUCAG | 0.119 ratio
GCACUUCUCAAAUACUGGCCAAAGACUCACAGUCCAAAAGAAGUAAUGUUCUUAAACGAAUUAGAAGAAAUUUUAGAUGUCAUUGAACCAUCAGAGUUUGUGAAGAUCAUGGAGCCUCUU | 0.684 ratio
CUGGCACUCUAUCAGAUAUAUUAAUUUUUUAAUGUAGAUGUAAUUUUAAAAAUGAAUGGCUACUUUACACGUUUAACUAGGGUUUUACUACAUAUGUGUGUGUAUAUAUAUAUAUAUAUA | 9.98 ratio
AGAUAUUAAGUAUUUUGAAAAAACUCGAACAGAUUUGACAAGGGUAGCCAGCUUGGAGUCUAGCAAUUUGCCAAUGUGUUUACCAAUCUGGGGGCUUGUUUUUCUUUUCUUCUUUCAAAU | 0.537 ratio
UCUUUAAAAAAAAAAUUACAGGAAAAUACAGUGCUUUCCCUCCCAUAGAUCCACGUUCAAGCUCAAAGGCCAAAACUUUUGCACGGAGCUCAAACAUCUGAUGAAGAAAGAUUUCUGAGA | 1.33 ratio
GUGUCCUUUCAACUUAAUAAAUCACUGAGGCAUCUCUACUGUUCUGUGAGCAUCAGGAUUUUAGUGCUGUGUCACCACAUGAGAGUUCAGAAGCAGCCUUUCUGUGGAGGGUGGGAAUGA | 0.18 ratio
GCCACCAGAUCCCAGAAACAUGACCCUUGCAGCCUAUAAAGAGAAGAUGAAGGAGCUCCCGCUGGUGUCCUUGUUCUGCUCUUGCUUCCUGGCCGAUCCCCUGAAUAAGUCGUCCUACAA | 0.195 ratio

Series 4
Target: Histone acetyltransferase KAT6A, both winged helices, GST fusion (KAT6A, Homo sapiens, UniProt Q92794, residues 1-181)
Method: protein binding microarray
Molecule type: double-stranded DNA, one strand shown
Sample: in vitro
Concentration: not given
Notes: 8-mer, flanks averaged, mean of 2 arrays, mostly near background
Baseline: not given
Direction: higher = stronger binding
Residues (chain): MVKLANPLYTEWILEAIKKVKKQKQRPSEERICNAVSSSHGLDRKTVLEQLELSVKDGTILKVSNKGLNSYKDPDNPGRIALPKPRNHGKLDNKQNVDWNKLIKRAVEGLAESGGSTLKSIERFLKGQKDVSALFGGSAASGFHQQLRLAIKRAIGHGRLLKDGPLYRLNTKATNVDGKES
Oligonucleotide | E-score
AACTCCGT | 0.127
CCTTTCCG | 0.167
AAGTATCC | -0.0812
ACTAGACA | -0.0648
CCCTGAAA | -0.211
AGGTGCCG | 0.206
ATCTTATC | -0.0586
AATAGTAG | -0.107
CACAAGCC | -0.0321
CCAATGAG | -0.128
AGCGATCC | 0.108
TGAGTACA | -0.0276
CCATTTAA | -0.113
GAAGTTGA | -0.171
ATATGGTA | -0.0624
TATTGTGA | -0.0549
ATGCCATC | -0.0368
ACCCACGA | -0.157
CATAGTAG | -0.0461

Series 5
Target: RNA binding protein fox-1 homolog 2, RRM domain, GST-SBP tag (RBFOX2, Homo sapiens, UniProt O43251-10, residues 100-194)
Method: RNA Bind-n-Seq
Molecule type: RNA
Sample: in vitro
Concentration: 365 nM
Notes: natural RNA segment, single round, ends assumed
Baseline: no-protein control
Direction: higher = stronger binding
Constant ends, left off below: GGGAGUUCUACAGUCCGACGAUC … UGGAAUUCUCGGGUGCCAA
Residues (chain): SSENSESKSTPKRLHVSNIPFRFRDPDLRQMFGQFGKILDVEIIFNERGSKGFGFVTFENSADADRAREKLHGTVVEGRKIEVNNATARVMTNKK
Oligonucleotide | RBNS enrichment (R)
UUCAGAAAAAUAAACUUUCCCAAAAUGUGUCUGAACCACAAGAGCAUACAGUGGAAGUGCUACCUCUAAUCUAACCAGAGCACCUUCAUGGUGGAAGACACCCACCAGGU | 0.86
ACACAAGAAAAAAAAAUAUCCUGGGCAAUAAAAAUUACUUUAAACCAGCUCCAGAGCCGCUCUUUUCCUAAGCCUCCUGUGCCGCCUUCAGUUUGUAGGAGGCAGCCUGU | 0.698
UCCCUGGCUCCCUCUACACGCACAUCCCAGAGCUGCCUCCCAGGGCUGGGAUCUCAGAGGUAGGGUGGCAGGGGCCUGGUAAGCAGAAUUCAAGCAGCACUUGGUCUUGG | 0.468
AACAUUGAGAUGUGUUUUUAAUGUUAAAAUAUUGAUUUCUACGUUAUGAAAACAGAUGCCCCCGUGAAUGCUUACCUGUGAGAUAACCACAACCAGGAAGAACAAAUCUG | 0.712
AGCCCAUCCAUCUCUUGGUUGCUAGUGAUUUUCAUAGAGUAGAUUGACUAGUAAGGUGUUGUAAGUGAUAAGAUCAAUAUCCCUAUGGCUGCUUCCUUGAUCACAGUUUC | 0.309
UCACAGCUCGGUUUUUCUUAUUUGUUGAGUGCUAUUACCAGGAGAAAUUCAAAUAAAUAUUCAAUUUAUUAUGAAUUUCAUUAUUUAUUUAUAAUAGUUUUUCUUUUAUA | 0.996
GUUUAUUUAAAACUUUUUUUAAUCCAGAUGUAGACUAUAUUCUAAAAAAUAAAAACGCAGAUGUGUUAACAAAACUGGACAAGUGUGUGUUGCUCUUUAAUCCACCAAUG | 0.41
AGGUCACCCUUGCACGGGUUUGGCCAACACCAUGAAGGAGUUGCCUUGGAGUUUCACCUGCAUAGCUUGCAUCAGCCCCGAGAGGGCAAAGGAGGGUCAGCCUUCCACUU | 0.354
UGAAAAUCAUGAAAAGAGGAACAGGUGGAUGUAUAGCAUUUUUAUUCAUGCCAUCUGUUUUCAACCAACUAUUUUUGAGGAAUUAUCAUGGGAAAAGACCAGGGCUUUUC | 0.546
ACACAGAAAUGUAGCUGUGUUCUGGAACUGAAUCUUACAUGGUAUACUUAGUGCUGCUGGGUAAUUUGUUGGUAUAUUAUCUGGUUAGUGGUUAAUGCUUCCUUUAAAAA | 0.478
CUCCUCUCCAGGGAGUAACAUCAGCUCAGAGUUUACUGAAGAAUUCAUCUUCACCUGAUAAAGAUGGUUGCUGGUUUGGAAUCUACACCUGCACACUUUUACUUCUUCCG | 0.28
UGCCUCGGCCUUUUGUCCAGCUCAGCCUGGGAUGUCUAUAGGGUUGAGGGUUUUAGACAAUCUCUAGGAAAGGGAUACAAAACAGAUCCGAUGGAAGAAACCUACUUCCC | 0.315

For quick reference, copied from above (series 1):
Oligonucleotide | E-score
CCAGTACA | 0.102
GCTAATAC | 0.103
CCCCAACG | -0.258
CGCTATAG | 0.0544
